Experimental data gathered from unrelated publications.
Lines come from different studies, so protocols differ. Numbers after ± are the reported error.

With N#CCNC(=O)c1ccc(-c2ccnc(Nc3ccc(N4CCOCC4=O)cc3)n2)cc1 the AUC increase was 15% (healthy volunteers, plasma; dose not given, added: rifampin multiple-dose; relative to: with single-dose rifampin).
O=c1[nH]cc(F)c(=O)[nH]1 has an AUC of 20000 to 30000 ng·h/mL (patients; 2000 mg/m² over 48 h).
CC(C)(C)c1cc(C(C)(C)C)c(NC(=O)c2c[nH]c3ccccc3c2=O)cc1O gave an AUC reduction of 15.4% (pregnant women with cystic fibrosis, plasma; dose not given; relative to: non-pregnant individuals).
COc1c(O)cc(C(=O)O)cc1O gave an AUC of 0.46 ± 0.11 µM·h (broiler chickens, serum; oral, in feed, 2000 mg/kg feed, wheat diet, no tannins).
COC(=O)N[C@H](C(=O)N1CCC[C@H]1c1ncc(-c2cc(F)c3c(c2)O[C@@H](c2cnc(C4CC4)s2)n2c-3cc3cc(-c4cnc([C@@H]5CCCN5C(=O)[C@@H](NC(=O)OC)C(C)C)[nH]4)ccc32)[nH]1)C(C)C gave an AUC of 3770 ng·h/mL (healthy adults, plasma; oral, 180 mg once daily, day 6, fasted, alone, steady state).
Cc1nn(C)cc1S(=O)(=O)NC(=O)c1ccc(-n2ccc(OCC(C)(C)C(F)(F)F)n2)nc1N1C[C@@H](C)CC1(C)C gave an AUC reduction of 62% (pregnant women with cystic fibrosis, plasma; dose not given; relative to: non-pregnant individuals).
With Cc1ccc(C(=O)NC2CC2)cc1-n1ncc(C(=O)c2cccc(C#N)c2)c1N the AUC was 41400 ng·h/mL (healthy volunteers; oral, 75 mg single dose, mean observed).
O=C(O)c1cc(O)c(O)c(O)c1 has an AUC of 1.32 ± 0.43 µM·h (broiler chickens, serum; oral, in feed, 2000 mg/kg feed, corn diet, no tannins).
With C#C[C@]1(O)CC[C@H]2[C@@H]3CCC4=CC(=O)CC[C@@H]4[C@H]3CC[C@@]21C the AUC was 25.2 ng·h/mL (radioimmunoassay; HIV-infected women, no protease inhibitor, serum; oral, 0.35 mg daily, steady state, interval 0-72 h, geometric mean).

Some of these lines once more:
COc1c(O)cc(C(=O)O)cc1O gave an AUC of 0.46 ± 0.11 µM·h (broiler chickens, serum; oral, in feed, 2000 mg/kg feed, wheat diet, no tannins).
